# Measurements collected from several papers.
# Lines come from different studies, so protocols differ. Numbers after ± are the reported error.
# RASA1 SH2 domains: Ras GTPase-activating protein 1, SH2 domains (RASA1, Homo sapiens, UniProt P20936)
# Sequence of UniProt P20936 (whole entry, looked up): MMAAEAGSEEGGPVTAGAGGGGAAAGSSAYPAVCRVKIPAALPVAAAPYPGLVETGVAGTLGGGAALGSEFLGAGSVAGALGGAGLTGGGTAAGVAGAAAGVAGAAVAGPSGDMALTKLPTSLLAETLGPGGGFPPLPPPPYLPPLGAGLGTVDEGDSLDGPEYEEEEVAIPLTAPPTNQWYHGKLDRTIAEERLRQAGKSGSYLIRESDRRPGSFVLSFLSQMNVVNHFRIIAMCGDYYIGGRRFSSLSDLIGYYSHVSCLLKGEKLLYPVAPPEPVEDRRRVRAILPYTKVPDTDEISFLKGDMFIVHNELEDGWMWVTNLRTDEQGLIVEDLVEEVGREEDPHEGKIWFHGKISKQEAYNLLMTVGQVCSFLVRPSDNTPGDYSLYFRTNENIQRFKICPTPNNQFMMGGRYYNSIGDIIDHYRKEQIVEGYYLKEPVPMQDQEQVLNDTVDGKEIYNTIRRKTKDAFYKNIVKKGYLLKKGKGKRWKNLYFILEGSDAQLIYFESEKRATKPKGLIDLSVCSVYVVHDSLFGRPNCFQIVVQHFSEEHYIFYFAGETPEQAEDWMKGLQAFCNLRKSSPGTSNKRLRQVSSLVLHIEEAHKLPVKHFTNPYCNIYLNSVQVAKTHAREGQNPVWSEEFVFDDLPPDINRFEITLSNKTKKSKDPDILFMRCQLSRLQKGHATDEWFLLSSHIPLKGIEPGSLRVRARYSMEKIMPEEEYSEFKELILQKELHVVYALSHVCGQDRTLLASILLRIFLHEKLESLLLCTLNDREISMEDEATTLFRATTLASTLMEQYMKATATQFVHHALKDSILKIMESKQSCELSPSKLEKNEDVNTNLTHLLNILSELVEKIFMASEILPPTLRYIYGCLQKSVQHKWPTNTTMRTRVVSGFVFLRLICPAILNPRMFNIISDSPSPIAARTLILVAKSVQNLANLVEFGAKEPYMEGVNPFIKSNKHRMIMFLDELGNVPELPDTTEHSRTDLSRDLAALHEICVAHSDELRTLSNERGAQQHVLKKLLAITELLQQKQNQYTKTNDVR
# BCHE: Cholinesterase (BCHE, Homo sapiens, UniProt P06276)
# Sequence of UniProt P06276 (whole entry, looked up): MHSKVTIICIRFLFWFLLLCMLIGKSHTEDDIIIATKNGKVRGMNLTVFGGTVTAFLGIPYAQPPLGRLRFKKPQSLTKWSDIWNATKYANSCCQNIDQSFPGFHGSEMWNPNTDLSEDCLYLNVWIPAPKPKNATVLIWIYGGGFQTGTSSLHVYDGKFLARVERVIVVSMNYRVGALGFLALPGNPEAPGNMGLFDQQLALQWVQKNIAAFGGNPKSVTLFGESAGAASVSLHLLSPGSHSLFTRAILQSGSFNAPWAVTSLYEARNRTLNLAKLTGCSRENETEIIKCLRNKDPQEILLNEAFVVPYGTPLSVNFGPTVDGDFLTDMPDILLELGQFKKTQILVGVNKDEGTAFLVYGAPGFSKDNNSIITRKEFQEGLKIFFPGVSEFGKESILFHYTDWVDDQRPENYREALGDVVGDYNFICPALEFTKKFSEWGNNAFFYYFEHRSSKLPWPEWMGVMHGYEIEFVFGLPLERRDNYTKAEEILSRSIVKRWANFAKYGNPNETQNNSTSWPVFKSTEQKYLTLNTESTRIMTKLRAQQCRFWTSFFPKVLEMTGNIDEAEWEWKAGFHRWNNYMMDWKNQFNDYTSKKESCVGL
# Sequence of UniProt Q92743 (whole entry, looked up): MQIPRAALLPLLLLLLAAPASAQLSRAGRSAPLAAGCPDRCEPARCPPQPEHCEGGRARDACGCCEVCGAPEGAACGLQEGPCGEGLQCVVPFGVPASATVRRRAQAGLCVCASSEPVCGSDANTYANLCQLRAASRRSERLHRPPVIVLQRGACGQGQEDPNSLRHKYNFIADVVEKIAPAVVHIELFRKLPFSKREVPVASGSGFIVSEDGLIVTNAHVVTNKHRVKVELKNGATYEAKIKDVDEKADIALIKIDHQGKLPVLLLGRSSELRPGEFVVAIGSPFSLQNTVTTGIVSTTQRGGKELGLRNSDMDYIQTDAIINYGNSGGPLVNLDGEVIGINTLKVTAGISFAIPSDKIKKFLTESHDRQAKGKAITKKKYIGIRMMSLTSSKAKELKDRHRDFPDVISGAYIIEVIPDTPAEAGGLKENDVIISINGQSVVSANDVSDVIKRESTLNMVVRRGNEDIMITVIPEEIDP
# Sequence of UniProt P00519 (whole entry, looked up): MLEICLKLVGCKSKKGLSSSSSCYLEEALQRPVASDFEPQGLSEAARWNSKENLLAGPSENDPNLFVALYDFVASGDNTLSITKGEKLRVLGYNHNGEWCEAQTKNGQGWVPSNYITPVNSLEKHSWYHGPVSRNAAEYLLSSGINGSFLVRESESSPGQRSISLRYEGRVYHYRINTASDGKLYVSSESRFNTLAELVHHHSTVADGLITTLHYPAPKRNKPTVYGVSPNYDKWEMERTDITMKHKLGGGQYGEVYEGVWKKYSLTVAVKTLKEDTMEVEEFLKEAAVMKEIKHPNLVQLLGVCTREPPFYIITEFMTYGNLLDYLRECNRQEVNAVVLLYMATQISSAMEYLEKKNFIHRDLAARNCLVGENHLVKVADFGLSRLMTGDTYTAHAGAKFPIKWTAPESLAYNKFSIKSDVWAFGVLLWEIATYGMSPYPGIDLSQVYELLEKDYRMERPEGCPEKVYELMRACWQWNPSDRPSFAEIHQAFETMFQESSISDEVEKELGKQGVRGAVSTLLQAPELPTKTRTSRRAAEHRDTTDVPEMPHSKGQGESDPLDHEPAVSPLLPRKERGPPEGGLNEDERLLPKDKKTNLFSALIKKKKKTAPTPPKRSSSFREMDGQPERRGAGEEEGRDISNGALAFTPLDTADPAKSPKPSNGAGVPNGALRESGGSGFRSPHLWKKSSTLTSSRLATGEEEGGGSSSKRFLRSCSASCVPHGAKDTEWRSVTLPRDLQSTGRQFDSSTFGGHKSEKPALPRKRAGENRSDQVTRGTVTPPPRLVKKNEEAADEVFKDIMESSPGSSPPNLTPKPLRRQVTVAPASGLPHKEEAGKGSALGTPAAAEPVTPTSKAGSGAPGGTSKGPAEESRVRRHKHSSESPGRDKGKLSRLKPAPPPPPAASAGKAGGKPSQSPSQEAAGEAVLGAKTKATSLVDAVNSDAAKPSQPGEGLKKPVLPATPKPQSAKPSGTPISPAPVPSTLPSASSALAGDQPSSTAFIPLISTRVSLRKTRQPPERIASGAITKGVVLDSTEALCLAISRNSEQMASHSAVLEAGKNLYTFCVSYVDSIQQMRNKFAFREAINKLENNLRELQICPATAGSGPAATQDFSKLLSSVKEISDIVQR
# Sequence of UniProt P07332 (whole entry, looked up): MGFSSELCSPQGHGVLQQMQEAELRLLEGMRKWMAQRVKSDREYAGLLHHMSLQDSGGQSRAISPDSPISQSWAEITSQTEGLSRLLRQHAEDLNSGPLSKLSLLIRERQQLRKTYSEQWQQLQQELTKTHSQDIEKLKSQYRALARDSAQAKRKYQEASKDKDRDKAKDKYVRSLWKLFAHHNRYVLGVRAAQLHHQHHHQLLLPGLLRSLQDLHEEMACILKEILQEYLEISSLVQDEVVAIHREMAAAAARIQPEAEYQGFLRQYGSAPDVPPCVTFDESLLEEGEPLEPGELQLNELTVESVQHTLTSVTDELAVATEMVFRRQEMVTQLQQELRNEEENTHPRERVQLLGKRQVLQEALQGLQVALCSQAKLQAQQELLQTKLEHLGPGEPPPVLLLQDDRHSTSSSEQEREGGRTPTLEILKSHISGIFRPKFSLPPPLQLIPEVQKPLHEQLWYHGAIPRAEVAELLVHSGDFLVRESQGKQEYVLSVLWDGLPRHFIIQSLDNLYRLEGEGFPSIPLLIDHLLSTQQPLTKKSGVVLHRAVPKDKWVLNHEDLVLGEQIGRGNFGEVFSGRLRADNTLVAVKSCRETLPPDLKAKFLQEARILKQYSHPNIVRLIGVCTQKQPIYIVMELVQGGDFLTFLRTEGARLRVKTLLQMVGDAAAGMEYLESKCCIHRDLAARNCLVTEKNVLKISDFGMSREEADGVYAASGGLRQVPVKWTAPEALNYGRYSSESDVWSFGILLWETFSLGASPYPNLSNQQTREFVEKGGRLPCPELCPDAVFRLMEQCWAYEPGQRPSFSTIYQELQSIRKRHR
# Sequence of UniProt Q9SCZ4 (whole entry, looked up): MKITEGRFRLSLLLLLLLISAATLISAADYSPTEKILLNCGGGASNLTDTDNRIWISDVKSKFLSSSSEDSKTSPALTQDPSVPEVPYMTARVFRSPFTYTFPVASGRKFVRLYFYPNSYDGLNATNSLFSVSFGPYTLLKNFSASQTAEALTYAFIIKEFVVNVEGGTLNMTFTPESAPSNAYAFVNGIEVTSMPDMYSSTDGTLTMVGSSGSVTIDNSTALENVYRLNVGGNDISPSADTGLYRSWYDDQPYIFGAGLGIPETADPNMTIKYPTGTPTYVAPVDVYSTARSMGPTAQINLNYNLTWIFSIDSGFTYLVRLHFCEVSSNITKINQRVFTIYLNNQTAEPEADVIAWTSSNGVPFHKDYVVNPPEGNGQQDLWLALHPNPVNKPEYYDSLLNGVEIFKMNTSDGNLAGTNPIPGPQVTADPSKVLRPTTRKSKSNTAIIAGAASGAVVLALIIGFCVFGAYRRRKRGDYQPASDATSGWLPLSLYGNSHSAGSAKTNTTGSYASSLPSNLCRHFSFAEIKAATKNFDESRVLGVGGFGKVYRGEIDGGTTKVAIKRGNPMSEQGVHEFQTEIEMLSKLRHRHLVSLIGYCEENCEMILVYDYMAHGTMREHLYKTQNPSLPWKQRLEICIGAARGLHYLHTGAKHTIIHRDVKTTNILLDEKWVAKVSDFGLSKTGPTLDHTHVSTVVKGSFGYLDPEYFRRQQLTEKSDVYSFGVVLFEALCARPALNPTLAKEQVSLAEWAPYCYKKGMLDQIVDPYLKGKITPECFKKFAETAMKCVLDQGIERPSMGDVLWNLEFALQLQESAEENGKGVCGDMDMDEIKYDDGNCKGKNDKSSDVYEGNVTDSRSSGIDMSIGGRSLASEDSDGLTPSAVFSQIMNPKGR
Compound,target,test,system,setting,measurement,result
CSCC[C@H](NC(=O)[C@H](Cc1ccc(OP(=O)(O)O)cc1)NC(=O)CNC(=O)CNC(=O)[C@H](CC(=O)O)NC(=O)[C@H](CO)NC(=O)[C@H](CCC(=O)O)NC(=O)CNC(=O)[C@@H](NC(=O)[C@H](CC(C)C)NC(=O)[C@H](CO)NC(=O)c1ccc2c(c1)C(=O)OC21c2ccc(N(C)C)cc2Oc2cc(N(C)C)ccc21)[C@@H](C)O)C(=O)N[C@@H](CC(=O)O)C(=O)N[C@@H](CCSC)C(=O)N[C@@H](CO)C(=O)N[C@@H](CCCCN)C(=O)N[C@@H](CC(=O)O)C(=O)N[C@@H](CCC(=O)O)C(=O)N[C@@H](CC(=O)O)C(=O)O,RASA1 SH2 domains,binding,,,Kd,103 nM
CC(C)[C@H](N)C(=O)N1CCC[C@H]1C(=O)N[C@@H](CO)C(=O)N[C@@H](CCC(N)=O)C(=O)N[C@@H](CO)C(=O)N[C@@H](Cc1ccccc1)C(=O)N1CCC[C@H]1C(=O)N[C@@H](C)C(=O)N1CCC[C@H]1C(=O)N[C@@H](CCCNC(=N)N)C(=O)N[C@@H](CO)C(=O)N[C@@H](CCC(N)=O)C(=O)N[C@@H](CCC(N)=O)C(=O)N[C@@H](CCCNC(=N)N)C(=O)N[C@@H](Cc1c[nH]c2ccccc12)C(=O)O,"Serine/threonine-protein phosphatase 4 regulatory subunit 3A, EVH1 domain (Homo sapiens, UniProt Q6IN85)",isothermal titration calorimetry,sodium phosphate buffer,pH 7.5,Kd,80300 ± 4300 nM
CC(C)C[C@H](NC(=O)[C@@H](N)CC(=O)O)C(=O)N[C@@H](CC(=O)O)C(=O)N[C@@H](COP(=O)(O)O)C(=O)N[C@@H](CC(=O)O)C(=O)N[C@@H](CC(=O)O)C(=O)N[C@@H](CCC(=O)O)C(=O)N[C@@H](Cc1ccc(O)cc1)C(=O)O,"PIH1 domain-containing protein 1, residues 51-180 (PIH1D1, Homo sapiens, UniProt Q9NWS0, K57A)",ITC,,"20 °C, mutant protein",Kd,> 112000 nM
CC(C)(C)C1CCN(C(=O)n2ncc(C(O)(c3ccccc3)c3ccccc3)n2)CC1,BCHE,inhibitor,,,IC50,1180 ± 200 nM
CC[C@H](C)[C@H](NC(=O)[C@H](Cc1ccc(OP(=O)(O)O)cc1)NC(=O)[C@H](CCC(=O)O)NC(=O)[C@@H]1CCCN1C(=O)[C@@H](NC(=O)[C@@H]1CCCN1C(=O)[C@H](CC(C)C)NC(=O)[C@H](Cc1ccccc1)NC(=O)[C@@H](NC(=O)[C@H](CC(=O)O)NC(=O)[C@H](CC(=O)O)NC(=O)c1ccc2c(c1)C(=O)OC21c2ccc(N(C)C)cc2Oc2cc(N(C)C)ccc21)[C@@H](C)O)C(C)C)C(=O)N[C@@H](CC(N)=O)C(=O)N[C@@H](CCC(N)=O)C(=O)N[C@@H](CO)C(=O)N[C@H](C(=O)N1CCC[C@H]1C(=O)N[C@@H](CCCCN)C(=O)N[C@@H](CC(=O)O)C(=O)O)C(C)C,"Tyrosine-protein kinase ABL1, SH2 domain (ABL1, Homo sapiens, UniProt P00519)",binding,,,Kd,916 nM
NC(=O)N/N=C/c1ccc([N+](=O)[O-])o1,"nfsB (Escherichia coli K-12, UniProt P38489, K14R)",binding,Escherichia coli,,Kd,38000 ± 2000 nM
CC[C@H](C)[C@H](NC(=O)[C@H](CNC(=O)CCl)NC(C)=O)C(=O)N[C@@H](C)C(=O)N[C@@H](CCC(N)=O)C(=O)N[C@@H](CCC(=O)O)C(=O)N[C@@H](CC(C)C)C(=O)N[C@@H](CCCNC(=N)N)C(=O)N[C@@]1(C)CCC/C=C\CCC[C@@](C)(C(=O)N[C@@H](Cc2ccccc2)C(=O)N[C@@H](CC(N)=O)C(=O)N[C@@H](C)C(=O)N[C@@H](Cc2ccc(O)cc2)C(=O)N[C@@H](Cc2ccc(O)cc2)C(=O)N[C@@H](C)C(=O)N[C@@H](CCCNC(=N)N)C(=O)N[C@@H](CCCNC(=N)N)C(N)=O)NC(=O)[C@H](CC(=O)O)NC(=O)CNC(=O)[C@H]([C@@H](C)CC)NC1=O,"MCL1 (Homo sapiens, UniProt Q07820)",isothermal titration calorimetry,,"25 °C, 10% DMSO",Kd,no binding
CC[C@H](C)[C@H](NC(=O)[C@H](CC(=O)O)NC(=O)[C@H](C)NC(=O)[C@H](Cc1ccc(O)cc1)NC(=O)[C@H](CCCCN)NC(=O)c1ccc2c(c1)C(=O)OC21c2ccc(N(C)C)cc2Oc2cc(N(C)C)ccc21)C(=O)N[C@@H](CCC(=O)O)C(=O)N[C@@H](CO)C(=O)N[C@@H](CO)C(=O)N[C@@H](CC(N)=O)C(=O)N[C@@H](Cc1ccc(OP(=O)(O)O)cc1)C(=O)N[C@@H](CCSC)C(=O)N[C@@H](C)C(=O)N1CCC[C@H]1C(=O)N[C@@H](Cc1ccc(O)cc1)C(=O)N[C@@H](CC(=O)O)C(=O)N[C@@H](CC(N)=O)C(=O)N[C@@H](Cc1ccc(O)cc1)C(=O)N[C@@H](CC(=O)O)C(=O)O,RASA1 SH2 domains,binding,,,Kd,335 nM
CC(=O)NCC(=O)NCC(=O)N[C@H](C(=O)N[C@@H](Cc1ccc(O)cc1)C(=O)N[C@@H](CO)C(=O)N[C@H]1CSSC[C@@H](C(=O)N[C@@H](CCCNC(=N)N)C(=O)N2CCC[C@H]2C(=O)N[C@@H](CCC(N)=O)C(=O)N[C@@H](CCCNC(=N)N)C(=O)NCC(=O)NCCC(=O)N[C@@H](CCCCNC(=O)CN(CC(=O)NCCCC[C@H](NC(=O)CCNC(=O)CNC(=O)[C@H](CCCNC(=N)N)NC(=O)[C@H](CCC(N)=O)NC(=O)[C@@H]2CCCN2C(=O)[C@H](CCCNC(=N)N)NC(=O)[C@@H]2CSSC[C@H](NC(=O)[C@H](CO)NC(=O)[C@H](Cc3ccc(O)cc3)NC(=O)[C@@H](NC(=O)CNC(=O)CNC(C)=O)[C@@H](C)O)C(=O)N[C@@H](Cc3c[nH]cn3)C(=O)N[C@@H](Cc3ccccc3)C(=O)NCC(=O)N[C@@H](C)C(=O)N[C@@H](CC(C)C)C(=O)N[C@@H]([C@@H](C)O)C(=O)N[C@@H](Cc3c[nH]c4ccccc34)C(=O)N[C@@H](C(C)C)C(=O)N2)C(N)=O)C(=O)CCN)C(N)=O)NC(=O)[C@H](C(C)C)NC(=O)[C@H](Cc2c[nH]c3ccccc23)NC(=O)[C@H]([C@@H](C)O)NC(=O)[C@H](CC(C)C)NC(=O)[C@H](C)NC(=O)CNC(=O)[C@H](Cc2ccccc2)NC(=O)[C@H](Cc2c[nH]cn2)NC1=O)[C@@H](C)O,"Erythropoietin receptor, extracellular domain (Homo sapiens, UniProt P19235)","binding, SPR",,,Kd,0.0542 nM
Cn1cccc1/C=N/N1CCN(Cc2ccccc2)CC1,"Gag-Pol polyprotein, integrase (gag-pol, Human immunodeficiency virus 1, UniProt P12497)","3'-processing activity, inhibitor",,wild-type integrase,IC50,> 100000 nM
CC(C)C[C@H](NC(=O)[C@H](CC(=O)O)NC(=O)[C@H](CC(=O)O)NC(=O)[C@H](CC(=O)O)NC(=O)[C@@H](NC(=O)[C@H](Cc1c[nH]c2ccccc12)NC(=O)[C@@H](N)CCC(=O)O)[C@@H](C)O)C(=O)N[C@@H](CO)C(=O)N[C@H](C(=O)N[C@@H](CC(=O)O)C(=O)N[C@@H](C)C(=O)O)C(C)C,"Serine protease HTRA1, PDZ domain (Homo sapiens, UniProt Q92743)",isothermal titration calorimetry,isolated PDZ domain,pH 8.0,Kd,38900 nM
O=C1c2ccccc2C(=O)c2ccccc21,"Reaction center protein M chain, QA site (pufM, Cereibacter sphaeroides, UniProt P0C0Y9)",QA site binding,,,Kd,< 200 nM
CSCC[C@H](NC(=O)[C@H](CC(C)C)NC(=O)[C@H](C)NC(=O)[C@H](CCCNC(=N)N)NC(=O)[C@H](Cc1ccc(OP(=O)(O)O)cc1)NC(=O)[C@H](Cc1ccccc1)NC(=O)[C@H](CC(N)=O)NC(=O)[C@H](CO)NC(=O)[C@H](CC(=O)O)NC(=O)[C@@H](NC(=O)[C@@H]1CCCN1C(=O)[C@H](CO)NC(=O)[C@@H]1CCCN1C(=O)[C@H](CC(C)C)NC(=O)c1ccc2c(c1)C(=O)OC21c2ccc(N(C)C)cc2Oc2cc(N(C)C)ccc21)[C@@H](C)O)C(=O)N[C@@H](CC(=O)O)C(=O)N[C@@H](CCC(=O)O)C(=O)N[C@@H](CCC(=O)O)C(=O)N[C@@H](CC(=O)O)C(=O)O,"Tyrosine-protein kinase Fes/Fps, SH2 domain (FES, Homo sapiens, UniProt P07332)",binding,,,Kd,1230 nM
CC(=O)c1cnc2ccc(-c3cc(Cl)c(O)c(Cl)c3)nc2c1N[C@H]1CC[C@H](CN(C)C)CC1,"Receptor-like protein kinase FERONIA (FER, Arabidopsis thaliana, UniProt Q9SCZ4)","binding, SPR steady-state",,kinase domain,Kd,400 nM
Nc1nc2c(ncn2[C@@H]2O[C@H](COP(=O)(O)OP(=O)(O)OP(=O)(O)O)[C@@H](O)[C@H]2O)c(=O)[nH]1,"GTP 3',8-cyclase (moaA, Staphylococcus aureus, UniProt P69848, R266A)","binding, isothermal titration calorimetry",,"25 °C, R266A mutant, anaerobic",Kd,2220 ± 670 nM
C[N+](C)(C)CCCCCCCCCC[N+](C)(C)C,BCHE,"enzyme activity, fluorescence",,,IC50,17300 ± 1990 nM
O=C(O)CCCN1CC=C(c2ccccc2)CC1,"Ubiquitin carboxyl-terminal hydrolase 13, ZnF-UBD domain (USP13, Homo sapiens, UniProt Q92995)",,,,Kd,594000 nM

# Some of these lines once more:
Compound,target,test,system,setting,measurement,result
Nc1nc2c(ncn2[C@@H]2O[C@H](COP(=O)(O)OP(=O)(O)OP(=O)(O)O)[C@@H](O)[C@H]2O)c(=O)[nH]1,"GTP 3',8-cyclase (moaA, Staphylococcus aureus, UniProt P69848, R266A)","binding, isothermal titration calorimetry",,"25 °C, R266A mutant, anaerobic",Kd,2220 ± 670 nM
CC(C)C[C@H](NC(=O)[C@H](CC(=O)O)NC(=O)[C@H](CC(=O)O)NC(=O)[C@H](CC(=O)O)NC(=O)[C@@H](NC(=O)[C@H](Cc1c[nH]c2ccccc12)NC(=O)[C@@H](N)CCC(=O)O)[C@@H](C)O)C(=O)N[C@@H](CO)C(=O)N[C@H](C(=O)N[C@@H](CC(=O)O)C(=O)N[C@@H](C)C(=O)O)C(C)C,"Serine protease HTRA1, PDZ domain (Homo sapiens, UniProt Q92743)",isothermal titration calorimetry,isolated PDZ domain,pH 8.0,Kd,38900 nM
